Assay results of several laboratories.
Parts stem from different laboratories: compare values within a part only.
UniProt O14920, sequence (whole entry, looked up): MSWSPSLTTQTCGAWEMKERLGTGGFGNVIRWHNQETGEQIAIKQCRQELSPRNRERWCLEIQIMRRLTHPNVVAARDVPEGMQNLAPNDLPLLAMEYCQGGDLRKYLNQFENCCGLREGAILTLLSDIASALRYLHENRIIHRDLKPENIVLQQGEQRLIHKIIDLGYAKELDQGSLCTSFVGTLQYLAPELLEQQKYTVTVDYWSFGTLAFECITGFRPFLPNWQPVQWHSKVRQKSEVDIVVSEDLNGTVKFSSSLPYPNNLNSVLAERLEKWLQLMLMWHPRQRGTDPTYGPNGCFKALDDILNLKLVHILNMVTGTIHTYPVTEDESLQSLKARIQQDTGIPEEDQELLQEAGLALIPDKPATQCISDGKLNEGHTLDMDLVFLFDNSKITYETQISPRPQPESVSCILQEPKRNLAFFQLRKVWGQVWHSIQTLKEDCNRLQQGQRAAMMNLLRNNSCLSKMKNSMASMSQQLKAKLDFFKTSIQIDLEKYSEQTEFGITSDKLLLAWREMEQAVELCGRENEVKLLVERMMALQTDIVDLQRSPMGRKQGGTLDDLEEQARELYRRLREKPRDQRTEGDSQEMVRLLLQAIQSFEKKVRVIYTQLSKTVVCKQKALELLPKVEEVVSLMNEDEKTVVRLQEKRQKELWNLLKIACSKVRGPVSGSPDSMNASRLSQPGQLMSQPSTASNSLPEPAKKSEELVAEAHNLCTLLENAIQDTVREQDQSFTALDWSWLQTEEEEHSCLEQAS
UniProt Q14164, sequence (whole entry, looked up): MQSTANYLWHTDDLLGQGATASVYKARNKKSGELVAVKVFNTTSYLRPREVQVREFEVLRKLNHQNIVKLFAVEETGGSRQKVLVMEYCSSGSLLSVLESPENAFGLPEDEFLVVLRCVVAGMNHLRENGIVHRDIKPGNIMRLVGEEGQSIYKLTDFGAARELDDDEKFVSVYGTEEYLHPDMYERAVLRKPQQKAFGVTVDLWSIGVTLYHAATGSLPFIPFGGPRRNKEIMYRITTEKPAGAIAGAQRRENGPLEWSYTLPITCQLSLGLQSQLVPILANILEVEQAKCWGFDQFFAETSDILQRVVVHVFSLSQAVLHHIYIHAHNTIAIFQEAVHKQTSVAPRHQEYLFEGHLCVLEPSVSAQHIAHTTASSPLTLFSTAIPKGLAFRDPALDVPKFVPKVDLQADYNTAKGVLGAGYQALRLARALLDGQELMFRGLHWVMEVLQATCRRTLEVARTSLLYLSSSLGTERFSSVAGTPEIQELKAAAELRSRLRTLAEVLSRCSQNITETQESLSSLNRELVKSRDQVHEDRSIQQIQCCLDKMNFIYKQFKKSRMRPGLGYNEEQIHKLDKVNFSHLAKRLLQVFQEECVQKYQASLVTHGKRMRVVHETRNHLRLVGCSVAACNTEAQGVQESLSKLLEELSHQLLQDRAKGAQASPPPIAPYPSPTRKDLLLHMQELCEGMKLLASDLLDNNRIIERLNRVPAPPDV
UniProt Q15831, sequence (whole entry, looked up): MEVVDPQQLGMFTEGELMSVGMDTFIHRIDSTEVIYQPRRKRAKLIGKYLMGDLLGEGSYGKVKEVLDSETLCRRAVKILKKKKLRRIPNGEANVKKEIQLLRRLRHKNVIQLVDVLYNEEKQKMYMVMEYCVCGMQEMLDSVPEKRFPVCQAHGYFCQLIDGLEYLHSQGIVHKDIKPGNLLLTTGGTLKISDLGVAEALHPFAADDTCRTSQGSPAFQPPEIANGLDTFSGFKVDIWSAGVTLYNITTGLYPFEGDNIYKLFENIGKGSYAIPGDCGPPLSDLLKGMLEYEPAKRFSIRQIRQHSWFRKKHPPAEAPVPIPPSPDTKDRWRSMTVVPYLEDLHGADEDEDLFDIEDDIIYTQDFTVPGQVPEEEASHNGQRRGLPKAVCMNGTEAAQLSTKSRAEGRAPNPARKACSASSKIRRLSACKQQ
UniProt P10721, sequence (whole entry, unmodified, looked up): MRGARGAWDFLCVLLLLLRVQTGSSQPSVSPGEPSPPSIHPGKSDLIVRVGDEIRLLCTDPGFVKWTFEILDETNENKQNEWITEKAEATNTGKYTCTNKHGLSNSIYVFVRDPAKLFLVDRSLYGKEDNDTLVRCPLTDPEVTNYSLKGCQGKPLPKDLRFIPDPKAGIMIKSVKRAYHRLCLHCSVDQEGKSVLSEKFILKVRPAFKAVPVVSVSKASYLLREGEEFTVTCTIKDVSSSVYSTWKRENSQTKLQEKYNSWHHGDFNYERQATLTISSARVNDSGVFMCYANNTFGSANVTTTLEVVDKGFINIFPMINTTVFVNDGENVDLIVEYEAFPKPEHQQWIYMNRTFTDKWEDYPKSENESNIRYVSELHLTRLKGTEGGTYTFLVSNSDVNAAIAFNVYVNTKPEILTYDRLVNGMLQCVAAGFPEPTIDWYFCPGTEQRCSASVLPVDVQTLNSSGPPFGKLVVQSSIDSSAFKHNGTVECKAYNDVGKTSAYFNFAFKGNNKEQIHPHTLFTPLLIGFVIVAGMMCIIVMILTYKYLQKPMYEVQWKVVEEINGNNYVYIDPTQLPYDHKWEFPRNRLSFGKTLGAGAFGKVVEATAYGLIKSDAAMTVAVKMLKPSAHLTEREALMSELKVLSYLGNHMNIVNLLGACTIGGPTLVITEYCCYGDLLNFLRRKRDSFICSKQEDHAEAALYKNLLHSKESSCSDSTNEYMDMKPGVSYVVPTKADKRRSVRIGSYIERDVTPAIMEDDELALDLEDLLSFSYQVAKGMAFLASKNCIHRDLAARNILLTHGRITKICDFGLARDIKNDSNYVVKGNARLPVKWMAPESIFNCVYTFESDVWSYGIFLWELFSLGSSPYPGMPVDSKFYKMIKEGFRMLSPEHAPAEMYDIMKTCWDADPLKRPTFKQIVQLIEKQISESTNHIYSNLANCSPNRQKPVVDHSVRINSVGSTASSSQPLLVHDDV
UniProt P37173, sequence (whole entry, looked up): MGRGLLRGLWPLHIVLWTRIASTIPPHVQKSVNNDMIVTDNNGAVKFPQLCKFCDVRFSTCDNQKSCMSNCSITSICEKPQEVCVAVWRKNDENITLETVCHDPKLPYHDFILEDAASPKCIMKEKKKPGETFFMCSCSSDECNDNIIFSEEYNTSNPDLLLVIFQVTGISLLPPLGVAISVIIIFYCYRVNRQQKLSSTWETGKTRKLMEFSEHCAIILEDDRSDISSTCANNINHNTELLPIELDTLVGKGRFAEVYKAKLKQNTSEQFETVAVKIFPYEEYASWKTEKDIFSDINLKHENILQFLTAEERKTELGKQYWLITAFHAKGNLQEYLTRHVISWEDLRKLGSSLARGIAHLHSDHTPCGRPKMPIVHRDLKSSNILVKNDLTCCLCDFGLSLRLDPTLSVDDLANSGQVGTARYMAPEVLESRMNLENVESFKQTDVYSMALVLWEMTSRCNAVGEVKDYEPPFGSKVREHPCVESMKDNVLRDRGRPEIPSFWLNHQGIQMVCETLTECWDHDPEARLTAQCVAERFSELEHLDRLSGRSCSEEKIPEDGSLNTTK

Block 1
Compound: O=C(c1ccccc1)c1ccc(N2CCOCC2)cc1O
Observed: enzyme activity
Mode: inhibitor
Concentration: 0.5 µM
Relative to: control
Endpoint: remaining activity
target = Cyclin-dependent kinase 4, with cyclin D1 (CDK4, Homo sapiens, UniProt P11802); value = 96.1%
target = Serine/threonine-protein kinase STK11 (STK11, Homo sapiens, UniProt Q15831); value = 104%
target = Calcium/calmodulin-dependent protein kinase type II subunit delta (CAMK2D, Homo sapiens, UniProt Q13557); value = 95.1%
target = Serine/threonine-protein kinase Chk2 (CHEK2, Homo sapiens, UniProt O96017); value = 106%
target = Cyclin-dependent kinase 5, with p25 (CDK5, Homo sapiens, UniProt Q00535); value = 98.8%
target = cAMP-dependent protein kinase catalytic subunit alpha (PRKACA, Homo sapiens, UniProt P17612); value = 98.3%
target = Tyrosine-protein kinase Lyn, isoform B (LYN, Homo sapiens, UniProt P07948); value = 100%
target = G protein-coupled receptor kinase 3 (GRK3, Homo sapiens, UniProt P35626); value = 103%
target = Mitogen-activated protein kinase 9 (MAPK9, Homo sapiens, UniProt P45984); value = 98.9%
target = Protein kinase C beta type, isoform beta-I (PRKCB, Homo sapiens, UniProt P05771); value = 90.1%
target = Inhibitor of nuclear factor kappa-B kinase subunit epsilon (IKBKE, Homo sapiens, UniProt Q14164); value = 101%
target = Serine/threonine-protein kinase 10 (STK10, Homo sapiens, UniProt O94804); value = 97.9%
target = Death-associated protein kinase 2 (DAPK2, Homo sapiens, UniProt Q9UIK4); value = 102%
target = Death-associated protein kinase 1 (DAPK1, Homo sapiens, UniProt P53355); value = 92.5%
target = TGF-beta receptor type-2 (TGFBR2, Homo sapiens, UniProt P37173); value = 109%
target = Serine/threonine-protein kinase OSR1 (OXSR1, Homo sapiens, UniProt O95747); value = 110%
target = STE20/SPS1-related proline-alanine-rich protein kinase (STK39, Homo sapiens, UniProt Q9UEW8); value = 94.8%
target = Mitogen-activated protein kinase kinase kinase 3 (MAP3K3, Homo sapiens, UniProt Q99759); value = 97.8%
target = Protein kinase C alpha type (PRKCA, Homo sapiens, UniProt P17252); value = 84.2%
target = Serine/threonine-protein kinase Nek2 (NEK2, Homo sapiens, UniProt P51955); value = 101%
target = Calcium/calmodulin-dependent protein kinase kinase 2 (CAMKK2, Homo sapiens, UniProt Q96RR4); value = 111%
target = Inhibitor of nuclear factor kappa-B kinase subunit beta (IKBKB, Homo sapiens, UniProt O14920); value = 105%
target = cGMP-dependent protein kinase 1, isoform beta (PRKG1, Homo sapiens, UniProt Q13976); value = 86.8%

Block 2
Target: Sal-like protein 4, full length isoform A (SALL4, Homo sapiens, UniProt Q9UJQ4, residues 1-1053)
UniProt Q9UJQ4, sequence (whole entry, looked up): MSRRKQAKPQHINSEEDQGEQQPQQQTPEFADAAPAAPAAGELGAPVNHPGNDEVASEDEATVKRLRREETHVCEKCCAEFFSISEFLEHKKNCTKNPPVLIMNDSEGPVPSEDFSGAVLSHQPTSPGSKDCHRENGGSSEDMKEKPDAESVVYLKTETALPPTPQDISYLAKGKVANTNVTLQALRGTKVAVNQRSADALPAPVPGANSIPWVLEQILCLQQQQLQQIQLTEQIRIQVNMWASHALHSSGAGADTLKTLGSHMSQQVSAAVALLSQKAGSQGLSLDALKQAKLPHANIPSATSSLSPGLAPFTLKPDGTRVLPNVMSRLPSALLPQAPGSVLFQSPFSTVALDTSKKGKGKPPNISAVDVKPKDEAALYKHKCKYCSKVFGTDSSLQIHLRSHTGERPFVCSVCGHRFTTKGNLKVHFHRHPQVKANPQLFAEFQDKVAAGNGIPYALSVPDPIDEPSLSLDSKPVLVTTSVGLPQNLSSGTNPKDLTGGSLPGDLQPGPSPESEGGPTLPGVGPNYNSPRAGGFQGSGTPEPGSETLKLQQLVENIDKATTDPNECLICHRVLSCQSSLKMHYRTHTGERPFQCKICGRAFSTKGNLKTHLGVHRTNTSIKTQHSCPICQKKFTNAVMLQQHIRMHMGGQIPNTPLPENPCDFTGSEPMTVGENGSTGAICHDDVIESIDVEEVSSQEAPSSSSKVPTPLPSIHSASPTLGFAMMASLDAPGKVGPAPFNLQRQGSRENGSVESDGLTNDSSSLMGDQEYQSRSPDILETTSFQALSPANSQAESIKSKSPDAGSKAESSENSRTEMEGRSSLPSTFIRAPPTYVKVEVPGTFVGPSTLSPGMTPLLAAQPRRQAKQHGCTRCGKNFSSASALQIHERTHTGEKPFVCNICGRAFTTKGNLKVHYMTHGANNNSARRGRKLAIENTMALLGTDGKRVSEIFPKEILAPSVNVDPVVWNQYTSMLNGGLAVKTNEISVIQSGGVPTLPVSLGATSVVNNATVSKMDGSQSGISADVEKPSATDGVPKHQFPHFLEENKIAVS
Technique: universal PBM
Molecule type: double-stranded DNA, one strand shown
Matrix: in vitro
Concentration: 600 nM
Notes: 8-mer, flanks averaged, mean of replicates
Direction: higher = stronger binding
Endpoint: E-score
Strand = GGCCTTCA; value = -0.138
Strand = AAGTACGC; value = -0.0159
Strand = ACATGCAC; value = 0.0744
Strand = ATACTAAG; value = 0.186
Strand = AGTTTTAA; value = 0.282
Strand = AATGACCG; value = -0.116
Strand = TCGGACCA; value = -0.115
Strand = AAATGACG; value = 0.133

Block 3
Structure (SMILES): Nc1c(C(=O)NCc2ccc(C(=O)NCCCC3CCCCC3)cc2)cnn1-c1ccccc1
Observed: cell-free assay
Technique: competition with immobilised ligand
Concentration: 0.1 µM
Endpoint: remaining binding
target = Cyclin-dependent kinase 14 (CDK14, Homo sapiens, UniProt O94921); value = 100%
target = Hepatocyte growth factor receptor (MET, Homo sapiens, UniProt P08581); value = 95%
target = Hepatocyte growth factor receptor (MET, Homo sapiens, UniProt P08581, Y1235D); value = 94%
target = Interleukin-1 receptor-associated kinase 1 (IRAK1, Homo sapiens, UniProt P51617); value = 86%
target = Mast/stem cell growth factor receptor Kit (KIT, Homo sapiens, UniProt P10721, D816H); value = 61%
target = Phosphatidylinositol 4,5-bisphosphate 3-kinase catalytic subunit alpha isoform (PIK3CA, Homo sapiens, UniProt P42336, E545K); value = 91%
target = Proto-oncogene tyrosine-protein kinase receptor Ret (RET, Homo sapiens, UniProt P07949, V804M); value = 98%
target = Testis-specific serine/threonine-protein kinase 1 (TSSK1B, Homo sapiens, UniProt Q9BXA7); value = 81%
target = Ribosomal protein S6 kinase alpha-4, C-terminal kinase domain (RPS6KA4, Homo sapiens, UniProt O75676); value = 98%
target = Rhodopsin kinase GRK7 (GRK7, Homo sapiens, UniProt Q8WTQ7); value = 100%
target = Fibroblast growth factor receptor 3 (FGFR3, Homo sapiens, UniProt P22607, G697C); value = 87%
target = Inhibitor of nuclear factor kappa-B kinase subunit beta (IKBKB, Homo sapiens, UniProt O14920); value = 100%
target = Phosphatidylinositol 5-phosphate 4-kinase type-2 gamma (PIP4K2C, Homo sapiens, UniProt Q8TBX8); value = 100%
target = Serine/threonine-protein kinase WNK4 (WNK4, Homo sapiens, UniProt Q96J92); value = 80%
target = MAP kinase-activated protein kinase 5 (MAPKAPK5, Homo sapiens, UniProt Q8IW41); value = 93%

Block 4
Target: Eukaryotic initiation factor 4A-I (EIF4A1, Homo sapiens, UniProt P60842, residues 1-406, full length assumed)
UniProt P60842, sequence (whole entry, looked up): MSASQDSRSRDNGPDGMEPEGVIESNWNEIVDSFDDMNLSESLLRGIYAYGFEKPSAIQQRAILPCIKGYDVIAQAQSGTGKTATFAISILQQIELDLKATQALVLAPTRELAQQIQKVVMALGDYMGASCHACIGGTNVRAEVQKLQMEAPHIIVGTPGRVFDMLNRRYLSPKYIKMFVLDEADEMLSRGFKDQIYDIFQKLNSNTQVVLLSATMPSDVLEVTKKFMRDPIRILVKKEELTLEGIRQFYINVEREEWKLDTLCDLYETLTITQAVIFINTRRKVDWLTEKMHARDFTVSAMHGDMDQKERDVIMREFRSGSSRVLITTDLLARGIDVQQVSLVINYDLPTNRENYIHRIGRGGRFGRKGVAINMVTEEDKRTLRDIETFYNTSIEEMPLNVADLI
Technique: RNA Bind-n-Seq
Molecule type: RNA
Matrix: in vitro
Concentration: 90 pmol
Notes: 4-mer, random 30-nt RNA, single round
Added: 3 µM DMDA-PatA, 2 mM ADP, 2 mM phosphate
Relative to: input library
Direction: higher = stronger binding
Endpoint: 4-mer enrichment
Strand = CUUC; value = 0.568 fold
Strand = AAAC; value = 0.745 fold
Strand = CCGA; value = 0.595 fold
Strand = GUAC; value = 0.71 fold
Strand = AGCC; value = 0.577 fold
Strand = UCAC; value = 0.59 fold
Strand = AACC; value = 0.637 fold
Strand = GAAA; value = 1.19 fold

Repeated from above (block 1):
target = Serine/threonine-protein kinase Chk2 (CHEK2, Homo sapiens, UniProt O96017); value = 106%
target = Protein kinase C alpha type (PRKCA, Homo sapiens, UniProt P17252); value = 84.2%
target = Serine/threonine-protein kinase 10 (STK10, Homo sapiens, UniProt O94804); value = 97.9%
